# Results collected from several papers.
# Parts stem from different laboratories: compare values within a part only.
# Sequence of UniProt Q13546 (whole entry, looked up): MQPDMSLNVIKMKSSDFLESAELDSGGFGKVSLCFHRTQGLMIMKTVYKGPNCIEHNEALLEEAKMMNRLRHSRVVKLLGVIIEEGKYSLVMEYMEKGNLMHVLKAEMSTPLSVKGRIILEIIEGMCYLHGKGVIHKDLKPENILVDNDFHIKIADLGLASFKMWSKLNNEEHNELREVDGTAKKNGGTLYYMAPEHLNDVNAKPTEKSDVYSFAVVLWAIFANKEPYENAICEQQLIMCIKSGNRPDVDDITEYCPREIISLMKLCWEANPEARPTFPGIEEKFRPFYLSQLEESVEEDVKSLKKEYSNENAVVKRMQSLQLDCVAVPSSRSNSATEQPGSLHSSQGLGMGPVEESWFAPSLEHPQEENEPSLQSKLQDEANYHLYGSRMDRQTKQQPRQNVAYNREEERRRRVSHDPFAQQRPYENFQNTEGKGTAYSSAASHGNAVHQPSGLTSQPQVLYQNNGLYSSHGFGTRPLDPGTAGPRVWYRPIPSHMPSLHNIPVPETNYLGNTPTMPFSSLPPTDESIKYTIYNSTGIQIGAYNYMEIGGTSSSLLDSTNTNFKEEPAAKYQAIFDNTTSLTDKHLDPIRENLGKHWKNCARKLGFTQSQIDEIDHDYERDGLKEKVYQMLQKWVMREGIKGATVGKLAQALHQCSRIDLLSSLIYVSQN
# Sequence of UniProt P27361 (whole entry, looked up): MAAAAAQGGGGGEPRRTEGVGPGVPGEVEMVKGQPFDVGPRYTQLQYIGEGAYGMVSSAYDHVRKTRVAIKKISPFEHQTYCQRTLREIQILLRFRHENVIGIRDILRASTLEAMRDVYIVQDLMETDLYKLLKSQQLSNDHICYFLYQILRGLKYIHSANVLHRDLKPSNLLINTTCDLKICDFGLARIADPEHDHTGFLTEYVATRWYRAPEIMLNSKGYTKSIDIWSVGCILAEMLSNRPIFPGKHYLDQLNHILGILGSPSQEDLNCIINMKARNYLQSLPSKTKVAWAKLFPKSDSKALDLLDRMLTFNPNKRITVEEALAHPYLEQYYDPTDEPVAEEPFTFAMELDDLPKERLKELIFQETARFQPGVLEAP
# Sequence of UniProt P42684 (whole entry, looked up): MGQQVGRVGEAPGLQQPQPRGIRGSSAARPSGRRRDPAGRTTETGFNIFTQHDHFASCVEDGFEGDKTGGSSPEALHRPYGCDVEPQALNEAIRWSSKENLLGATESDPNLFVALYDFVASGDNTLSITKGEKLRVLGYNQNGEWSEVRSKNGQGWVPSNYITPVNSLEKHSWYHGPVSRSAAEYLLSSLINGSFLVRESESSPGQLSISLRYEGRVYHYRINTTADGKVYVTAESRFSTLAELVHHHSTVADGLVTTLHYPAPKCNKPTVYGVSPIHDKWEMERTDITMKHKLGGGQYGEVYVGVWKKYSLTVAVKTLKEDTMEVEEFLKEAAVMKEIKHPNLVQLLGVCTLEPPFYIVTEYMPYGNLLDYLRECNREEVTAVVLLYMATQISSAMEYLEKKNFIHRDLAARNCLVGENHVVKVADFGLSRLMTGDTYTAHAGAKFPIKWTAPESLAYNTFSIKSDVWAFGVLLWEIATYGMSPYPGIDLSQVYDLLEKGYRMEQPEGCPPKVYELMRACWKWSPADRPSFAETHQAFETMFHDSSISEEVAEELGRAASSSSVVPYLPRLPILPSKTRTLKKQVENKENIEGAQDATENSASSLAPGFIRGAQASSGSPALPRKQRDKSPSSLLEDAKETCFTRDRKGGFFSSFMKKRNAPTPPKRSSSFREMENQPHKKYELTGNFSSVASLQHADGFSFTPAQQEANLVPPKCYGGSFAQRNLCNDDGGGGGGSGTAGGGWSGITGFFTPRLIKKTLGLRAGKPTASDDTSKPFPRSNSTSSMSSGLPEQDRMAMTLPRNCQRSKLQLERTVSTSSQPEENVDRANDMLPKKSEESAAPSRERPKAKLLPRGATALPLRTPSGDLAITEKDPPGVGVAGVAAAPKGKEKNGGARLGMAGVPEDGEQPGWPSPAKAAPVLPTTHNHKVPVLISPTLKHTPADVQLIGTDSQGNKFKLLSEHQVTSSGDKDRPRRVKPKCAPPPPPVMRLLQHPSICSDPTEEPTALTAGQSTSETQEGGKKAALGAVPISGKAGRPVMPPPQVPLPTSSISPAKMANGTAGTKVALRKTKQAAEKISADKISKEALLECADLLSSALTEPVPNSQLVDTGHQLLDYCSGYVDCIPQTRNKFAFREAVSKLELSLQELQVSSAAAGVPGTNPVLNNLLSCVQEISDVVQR
# Sequence of UniProt P53667 (whole entry, looked up): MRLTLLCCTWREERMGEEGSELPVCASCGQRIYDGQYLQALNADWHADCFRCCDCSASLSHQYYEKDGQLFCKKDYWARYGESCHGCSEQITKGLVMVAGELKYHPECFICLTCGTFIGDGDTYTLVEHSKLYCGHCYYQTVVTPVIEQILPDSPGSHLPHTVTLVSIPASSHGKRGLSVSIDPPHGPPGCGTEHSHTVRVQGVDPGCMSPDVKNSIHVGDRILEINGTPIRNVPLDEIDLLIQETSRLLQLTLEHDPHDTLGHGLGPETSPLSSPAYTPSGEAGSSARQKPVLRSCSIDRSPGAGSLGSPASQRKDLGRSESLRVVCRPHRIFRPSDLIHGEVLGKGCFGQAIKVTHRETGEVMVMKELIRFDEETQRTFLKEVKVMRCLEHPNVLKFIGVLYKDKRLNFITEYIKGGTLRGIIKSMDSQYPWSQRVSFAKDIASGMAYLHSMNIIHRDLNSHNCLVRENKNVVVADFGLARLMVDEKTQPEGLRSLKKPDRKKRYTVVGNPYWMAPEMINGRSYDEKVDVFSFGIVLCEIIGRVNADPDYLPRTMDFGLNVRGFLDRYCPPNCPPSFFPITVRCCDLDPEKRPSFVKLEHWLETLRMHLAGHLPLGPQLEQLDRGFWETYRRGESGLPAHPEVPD
# Sequence of UniProt Q6PHR2 (whole entry, looked up): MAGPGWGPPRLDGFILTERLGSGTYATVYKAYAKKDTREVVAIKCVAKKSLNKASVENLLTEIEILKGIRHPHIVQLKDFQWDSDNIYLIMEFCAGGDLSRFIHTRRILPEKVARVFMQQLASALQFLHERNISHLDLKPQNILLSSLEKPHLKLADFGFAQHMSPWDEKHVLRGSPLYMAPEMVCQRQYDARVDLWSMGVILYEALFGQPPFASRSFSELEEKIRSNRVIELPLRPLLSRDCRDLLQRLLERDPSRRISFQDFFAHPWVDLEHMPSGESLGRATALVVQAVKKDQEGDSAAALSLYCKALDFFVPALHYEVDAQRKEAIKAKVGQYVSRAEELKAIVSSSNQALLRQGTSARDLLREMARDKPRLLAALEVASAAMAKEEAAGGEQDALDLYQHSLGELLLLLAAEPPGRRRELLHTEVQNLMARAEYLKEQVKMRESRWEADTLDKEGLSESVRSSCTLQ
# Sequence of UniProt P38919 (whole entry, looked up): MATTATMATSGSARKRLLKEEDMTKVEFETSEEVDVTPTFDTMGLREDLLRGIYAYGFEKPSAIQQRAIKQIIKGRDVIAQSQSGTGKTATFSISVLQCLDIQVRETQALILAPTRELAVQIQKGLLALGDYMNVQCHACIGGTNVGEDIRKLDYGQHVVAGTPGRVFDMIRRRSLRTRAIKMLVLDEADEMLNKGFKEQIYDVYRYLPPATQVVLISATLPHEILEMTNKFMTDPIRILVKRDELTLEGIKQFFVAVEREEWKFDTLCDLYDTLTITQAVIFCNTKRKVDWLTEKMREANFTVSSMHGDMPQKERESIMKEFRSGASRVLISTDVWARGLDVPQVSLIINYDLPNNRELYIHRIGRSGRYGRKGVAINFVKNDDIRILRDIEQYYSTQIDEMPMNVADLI
# Sequence of UniProt P09769 (whole entry, looked up): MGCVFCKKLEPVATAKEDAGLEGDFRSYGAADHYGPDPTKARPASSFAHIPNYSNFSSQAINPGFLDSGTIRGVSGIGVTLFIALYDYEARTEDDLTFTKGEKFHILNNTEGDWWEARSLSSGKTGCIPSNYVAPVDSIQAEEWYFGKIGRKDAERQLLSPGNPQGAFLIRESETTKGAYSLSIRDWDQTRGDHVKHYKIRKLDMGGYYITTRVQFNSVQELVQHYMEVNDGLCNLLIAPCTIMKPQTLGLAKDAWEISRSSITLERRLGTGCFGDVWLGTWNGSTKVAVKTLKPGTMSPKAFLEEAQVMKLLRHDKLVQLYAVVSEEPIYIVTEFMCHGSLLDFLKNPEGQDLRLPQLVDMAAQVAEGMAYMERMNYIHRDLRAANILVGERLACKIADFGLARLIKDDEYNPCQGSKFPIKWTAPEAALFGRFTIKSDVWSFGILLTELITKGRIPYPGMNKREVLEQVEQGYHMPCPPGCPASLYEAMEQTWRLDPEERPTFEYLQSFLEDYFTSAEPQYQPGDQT
# Sequence of UniProt Q9HC98 (whole entry, looked up): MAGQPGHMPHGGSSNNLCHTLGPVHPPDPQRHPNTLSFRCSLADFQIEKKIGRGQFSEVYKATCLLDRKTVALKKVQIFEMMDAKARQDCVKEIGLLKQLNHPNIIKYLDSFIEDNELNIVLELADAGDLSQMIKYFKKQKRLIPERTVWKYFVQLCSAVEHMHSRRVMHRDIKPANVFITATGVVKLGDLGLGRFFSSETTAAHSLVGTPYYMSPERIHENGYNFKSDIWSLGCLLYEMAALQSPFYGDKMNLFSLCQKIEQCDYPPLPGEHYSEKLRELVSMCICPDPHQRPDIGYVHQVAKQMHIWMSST

# Set 1
# Compound: COc1cc(C(=O)N2CCC(N3CCN(C)CC3)CC2)ccc1Nc1ncc2c(n1)N(C)c1ccccc1C(=O)N2C
# Method: KINOMEscan
# Tested at: 10 µM
# Reference: DMSO control
# Direction: lower = stronger binding
target,binding
AKT1,79%
FGFR3,80%
AAK1,84%
CAMK4,79%
MYLK2,98%
PRKCQ,100%
PDGFRA,100%
ZAP70,79%

# Set 2
# Structure (SMILES): Nc1c(C(=O)NCc2ccc(C(=O)NCCCC3CCCCC3)cc2)cnn1-c1ccccc1
# Effect on: cell-free assay
# Method: competition with immobilised ligand
# Tested at: 0.1 µM
target,remaining binding [%]
"Serine/threonine-protein kinase PLK4 (PLK4, Homo sapiens, UniProt O00444)",100
"1-phosphatidylinositol 3-phosphate 5-kinase (PIKFYVE, Homo sapiens, UniProt Q9Y2I7)",100
"Tyrosine-protein kinase ABL1, phosphorylated (ABL1, Homo sapiens, UniProt P00519)",97
"Tyrosine-protein kinase ABL2 (ABL2, Homo sapiens, UniProt P42684)",100
"Serine/threonine-protein kinase RIO3 (RIOK3, Homo sapiens, UniProt O14730)",100
"Dual specificity protein kinase TTK (TTK, Homo sapiens, UniProt P33981)",100
"Tyrosine-protein kinase Fgr (FGR, Homo sapiens, UniProt P09769)",100
"Serine/threonine-protein kinase ULK3 (ULK3, Homo sapiens, UniProt Q6PHR2)",100
"LIM domain kinase 1 (LIMK1, Homo sapiens, UniProt P53667)",100
"Protein kinase C eta type (PRKCH, Homo sapiens, UniProt P24723)",98
"Receptor-interacting serine/threonine-protein kinase 1 (RIPK1, Homo sapiens, UniProt Q13546)",100
"Serine/threonine-protein kinase D2 (PRKD2, Homo sapiens, UniProt Q9BZL6)",100
"3-phosphoinositide-dependent protein kinase 1 (PDPK1, Homo sapiens, UniProt O15530)",100
"Epidermal growth factor receptor (EGFR, Homo sapiens, UniProt P00533, G719S)",84
"Macrophage colony-stimulating factor 1 receptor (CSF1R, Homo sapiens, UniProt P07333)",91
"Epidermal growth factor receptor (EGFR, Homo sapiens, UniProt P00533, A750P/del747-749)",100
"Tyrosine-protein kinase ABL1, phosphorylated (ABL1, Homo sapiens, UniProt P00519, Y253F)",100
"Bone morphogenetic protein receptor type-1B (BMPR1B, Homo sapiens, UniProt O00238)",100
"Cyclin-dependent kinase-like 3 (CDKL3, Homo sapiens, UniProt Q8IVW4)",97
"Epidermal growth factor receptor (EGFR, Homo sapiens, UniProt P00533, G719C)",85
"Mitogen-activated protein kinase 3 (MAPK3, Homo sapiens, UniProt P27361)",94
"Serine/threonine-protein kinase Nek6 (NEK6, Homo sapiens, UniProt Q9HC98)",100
"Myosin light chain kinase 2, skeletal/cardiac muscle (MYLK2, Homo sapiens, UniProt Q9H1R3)",100
"Mitogen-activated protein kinase 4 (MAPK4, Homo sapiens, UniProt P31152)",100
"Epidermal growth factor receptor (EGFR, Homo sapiens, UniProt P00533, L861Q)",90

# Set 3
# Target: Protein kinase C epsilon type (PRKCE, Homo sapiens, UniProt Q02156)
# Effect on: enzyme activity
# Action: inhibitor
# Tested at: 0.5 µM
# Reference: control
# Residues (Q02156 1-737): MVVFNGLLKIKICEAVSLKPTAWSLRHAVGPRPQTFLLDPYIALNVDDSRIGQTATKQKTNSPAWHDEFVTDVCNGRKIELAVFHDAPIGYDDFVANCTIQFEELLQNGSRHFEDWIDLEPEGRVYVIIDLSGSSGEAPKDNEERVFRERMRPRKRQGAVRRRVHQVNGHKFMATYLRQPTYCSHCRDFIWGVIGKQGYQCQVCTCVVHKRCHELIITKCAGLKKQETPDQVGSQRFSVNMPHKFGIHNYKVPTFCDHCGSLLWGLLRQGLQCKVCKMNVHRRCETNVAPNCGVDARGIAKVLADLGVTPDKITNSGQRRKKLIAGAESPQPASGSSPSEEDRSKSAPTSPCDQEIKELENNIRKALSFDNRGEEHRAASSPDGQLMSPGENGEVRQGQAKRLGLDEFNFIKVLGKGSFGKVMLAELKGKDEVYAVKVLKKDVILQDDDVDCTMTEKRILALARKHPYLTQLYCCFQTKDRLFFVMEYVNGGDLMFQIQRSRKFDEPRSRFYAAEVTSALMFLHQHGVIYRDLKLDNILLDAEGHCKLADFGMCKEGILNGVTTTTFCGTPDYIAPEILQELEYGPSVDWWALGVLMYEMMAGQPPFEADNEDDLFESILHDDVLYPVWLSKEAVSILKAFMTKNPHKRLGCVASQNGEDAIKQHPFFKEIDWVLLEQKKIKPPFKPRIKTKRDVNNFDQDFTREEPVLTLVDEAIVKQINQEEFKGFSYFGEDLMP
SMILES,remaining activity [%]
CCOc1cc2ncnc(Nc3cccc(Br)c3)c2cc1OCC,94.5
CN(C)CCCn1cc(C2=C(c3c[nH]c4ccccc34)C(=O)NC2=O)c2ccccc21,0.493
C[S+]([O-])c1ccc(-c2nc(-c3ccncc3)c(-c3ccc(F)cc3)[nH]2)cc1 (centres unmarked),115
COc1ccc(-c2cnc3c(-c4ccsc4)cnn3c2)cc1,103
O=C1NC(=O)/C(=C/c2ccc3nccnc3c2)S1,101
O=c1cc(N2CCOCC2)oc2c1ccc1ccccc12,89.6
COc1ccc(Cl)cc1NC(=O)Nc1cc(C)nc2ccccc12,99.7
CC(C)c1nn(-c2c(Cl)cccc2Cl)c2nc(Cc3ccc(OCCO)cc3)[nH]c(=O)c12,90.5
COc1cc2ncc(-c3ccccc3)nc2cc1OC,87.9
Cn1cc(/C=C2\C(=O)Nc3ccc(S(N)(=O)=O)cc32)c2ccccc21,77.3
Cn1cnc2cc3c(Nc4cccc(Br)c4)ncnc3cc21,87.8
CCC(=O)Nc1ccc2ncnc(Nc3cccc(Br)c3)c2c1,99.7
Cc1nc(Nc2ncc(C(=O)Nc3c(C)cccc3Cl)s2)cc(N2CCN(CCO)CC2)n1,102
CC(C)[C@H](CO)Nc1nc(Nc2cccc(Cl)c2)c2ncn(C(C)C)c2n1,115
COc1cc2ncnc(Nc3ccc(OCc4ccccc4)cc3)c2cc1OC,99.4
COc1cc2ncnc(N3CCN(C(=O)Nc4ccc(Oc5ccccc5)cc4)CC3)c2cc1OC,106
Nc1[nH]nc2nnc(-c3c(-c4ccccc4)nn4ccccc34)cc12,72.7
CS(=O)(=O)CCNCc1ccc(-c2ccc3ncnc(Nc4ccc(OCc5cccc(F)c5)c(Cl)c4)c3c2)o1,98
O=C(Nc1ccc(Cl)cc1)c1ccccc1NCc1ccncc1,97
CC(=O)O/N=C1/C(c2c(O)[nH]c3cc(Br)ccc23)=Nc2ccccc21,86.2
CCN1/C(=C/C(C)=O)Sc2ccc(OC)cc21,95.2
Cc1ccc(NC(=O)c2ccc(CN3CCN(C)CC3)cc2)cc1Nc1nccc(-c2cccnc2)n1,97.2

# Single results of other studies
SMILES,target,test,conditions,quantity,result
COc1cc(F)cc2c1[C@]1(O)[C@H](O)[C@@H](C#N)[C@H](c3ccccc3)[C@]1(c1ccc(Br)cc1)O2,"Eukaryotic initiation factor 4A-III (Homo sapiens, UniProt P38919)","RNA clamping, fluorescence polarization","concentration not given, mean of two replicates, together with: FAM-labelled poly r(AG)8 RNA",fluorescence polarization change,8.3 mP
